Measured values collected from several papers.
Each numbered part is a random draw from the data of one study; scales do not carry over between parts. pEC50: −log10 of the molar value.
Chain of UniProt O75582 (whole entry, looked up): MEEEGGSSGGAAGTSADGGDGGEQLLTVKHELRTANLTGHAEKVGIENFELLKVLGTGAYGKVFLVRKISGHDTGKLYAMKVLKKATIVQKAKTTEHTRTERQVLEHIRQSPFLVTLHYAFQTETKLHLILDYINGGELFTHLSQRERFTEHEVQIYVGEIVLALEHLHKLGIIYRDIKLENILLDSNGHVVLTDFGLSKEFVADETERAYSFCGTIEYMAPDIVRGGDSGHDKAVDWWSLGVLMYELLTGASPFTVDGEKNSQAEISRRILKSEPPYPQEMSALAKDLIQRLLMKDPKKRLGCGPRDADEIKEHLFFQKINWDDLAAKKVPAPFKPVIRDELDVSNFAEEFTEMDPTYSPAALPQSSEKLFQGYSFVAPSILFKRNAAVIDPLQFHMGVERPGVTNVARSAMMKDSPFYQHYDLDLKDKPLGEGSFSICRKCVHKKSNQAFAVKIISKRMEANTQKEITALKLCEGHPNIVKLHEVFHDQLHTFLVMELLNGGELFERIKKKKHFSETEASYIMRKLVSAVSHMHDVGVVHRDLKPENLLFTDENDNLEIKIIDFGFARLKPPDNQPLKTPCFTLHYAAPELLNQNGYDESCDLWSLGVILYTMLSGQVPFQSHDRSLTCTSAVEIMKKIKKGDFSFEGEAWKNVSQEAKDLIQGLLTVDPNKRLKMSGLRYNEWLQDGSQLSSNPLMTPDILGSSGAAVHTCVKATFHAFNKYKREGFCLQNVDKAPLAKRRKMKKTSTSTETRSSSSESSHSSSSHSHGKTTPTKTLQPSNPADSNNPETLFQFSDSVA
Chain of UniProt P51957 (whole entry, looked up): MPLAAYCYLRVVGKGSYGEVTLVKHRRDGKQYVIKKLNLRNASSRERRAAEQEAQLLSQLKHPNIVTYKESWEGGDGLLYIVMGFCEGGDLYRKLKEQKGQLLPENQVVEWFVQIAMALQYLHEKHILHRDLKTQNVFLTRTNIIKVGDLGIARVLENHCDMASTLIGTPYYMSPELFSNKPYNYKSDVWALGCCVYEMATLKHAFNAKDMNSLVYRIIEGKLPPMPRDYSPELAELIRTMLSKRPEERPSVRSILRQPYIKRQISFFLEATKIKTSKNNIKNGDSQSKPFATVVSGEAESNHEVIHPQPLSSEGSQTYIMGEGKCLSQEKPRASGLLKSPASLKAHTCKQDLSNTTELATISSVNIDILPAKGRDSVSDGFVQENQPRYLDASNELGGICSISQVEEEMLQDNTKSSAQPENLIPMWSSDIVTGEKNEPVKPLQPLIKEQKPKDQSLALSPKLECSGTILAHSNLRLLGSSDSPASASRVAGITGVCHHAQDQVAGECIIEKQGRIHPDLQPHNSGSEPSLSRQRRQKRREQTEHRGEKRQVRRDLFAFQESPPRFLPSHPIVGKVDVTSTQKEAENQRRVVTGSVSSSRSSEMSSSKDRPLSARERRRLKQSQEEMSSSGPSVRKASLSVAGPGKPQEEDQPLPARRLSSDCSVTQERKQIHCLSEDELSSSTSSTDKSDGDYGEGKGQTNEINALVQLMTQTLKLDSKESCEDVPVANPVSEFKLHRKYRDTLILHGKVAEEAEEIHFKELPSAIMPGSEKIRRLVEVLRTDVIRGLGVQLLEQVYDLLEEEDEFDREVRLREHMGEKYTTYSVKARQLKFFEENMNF
Chain of UniProt P0C1S8 (whole entry, looked up): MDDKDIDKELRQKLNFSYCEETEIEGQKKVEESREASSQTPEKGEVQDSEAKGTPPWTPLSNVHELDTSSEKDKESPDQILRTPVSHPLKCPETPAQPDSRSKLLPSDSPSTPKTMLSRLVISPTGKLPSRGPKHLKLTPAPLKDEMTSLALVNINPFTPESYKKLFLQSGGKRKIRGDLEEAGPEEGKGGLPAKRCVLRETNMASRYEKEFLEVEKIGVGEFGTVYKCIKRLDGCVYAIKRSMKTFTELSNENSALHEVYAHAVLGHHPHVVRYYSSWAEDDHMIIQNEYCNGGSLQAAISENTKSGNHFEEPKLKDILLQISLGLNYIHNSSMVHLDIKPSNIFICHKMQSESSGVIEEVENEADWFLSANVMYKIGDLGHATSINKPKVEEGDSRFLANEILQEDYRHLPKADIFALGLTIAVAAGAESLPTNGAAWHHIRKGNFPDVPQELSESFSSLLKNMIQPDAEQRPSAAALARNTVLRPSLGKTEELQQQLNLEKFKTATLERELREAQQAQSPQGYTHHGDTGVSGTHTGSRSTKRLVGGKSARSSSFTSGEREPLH
Chain of UniProt P53355 (whole entry, looked up): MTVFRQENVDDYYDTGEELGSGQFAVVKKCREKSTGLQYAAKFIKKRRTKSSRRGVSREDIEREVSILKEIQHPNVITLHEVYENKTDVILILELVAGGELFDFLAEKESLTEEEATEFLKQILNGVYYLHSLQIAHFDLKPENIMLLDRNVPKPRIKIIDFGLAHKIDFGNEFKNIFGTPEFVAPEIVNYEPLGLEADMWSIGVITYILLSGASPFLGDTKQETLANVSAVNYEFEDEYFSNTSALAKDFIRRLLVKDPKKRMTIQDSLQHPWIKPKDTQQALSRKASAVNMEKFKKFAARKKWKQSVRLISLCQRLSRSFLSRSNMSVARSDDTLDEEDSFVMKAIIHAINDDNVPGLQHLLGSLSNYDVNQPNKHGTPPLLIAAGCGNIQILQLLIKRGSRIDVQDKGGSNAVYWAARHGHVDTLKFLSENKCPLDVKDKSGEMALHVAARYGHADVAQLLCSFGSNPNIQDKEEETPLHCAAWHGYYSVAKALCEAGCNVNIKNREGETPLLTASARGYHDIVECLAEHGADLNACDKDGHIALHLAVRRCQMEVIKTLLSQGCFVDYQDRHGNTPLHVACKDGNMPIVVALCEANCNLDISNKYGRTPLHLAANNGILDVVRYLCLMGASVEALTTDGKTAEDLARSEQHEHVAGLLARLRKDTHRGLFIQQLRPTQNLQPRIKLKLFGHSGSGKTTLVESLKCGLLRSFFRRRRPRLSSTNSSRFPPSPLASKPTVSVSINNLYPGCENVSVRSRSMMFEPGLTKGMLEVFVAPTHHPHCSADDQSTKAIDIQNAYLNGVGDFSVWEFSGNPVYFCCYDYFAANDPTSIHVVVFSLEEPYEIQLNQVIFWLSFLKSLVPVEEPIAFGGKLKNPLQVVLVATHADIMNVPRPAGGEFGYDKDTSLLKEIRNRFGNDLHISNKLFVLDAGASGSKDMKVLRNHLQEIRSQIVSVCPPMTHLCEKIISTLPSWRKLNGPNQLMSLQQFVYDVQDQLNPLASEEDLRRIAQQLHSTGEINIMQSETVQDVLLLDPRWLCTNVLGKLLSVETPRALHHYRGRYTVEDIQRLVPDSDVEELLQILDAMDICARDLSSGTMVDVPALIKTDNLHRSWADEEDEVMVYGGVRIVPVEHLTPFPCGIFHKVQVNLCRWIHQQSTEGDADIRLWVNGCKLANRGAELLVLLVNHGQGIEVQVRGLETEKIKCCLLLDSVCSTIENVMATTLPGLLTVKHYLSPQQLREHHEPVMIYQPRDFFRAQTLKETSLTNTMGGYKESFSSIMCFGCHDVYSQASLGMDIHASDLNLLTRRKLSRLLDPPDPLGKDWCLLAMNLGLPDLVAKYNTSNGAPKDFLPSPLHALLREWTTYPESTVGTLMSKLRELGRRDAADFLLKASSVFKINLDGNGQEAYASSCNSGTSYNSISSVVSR
Chain of UniProt P10721 (whole entry, unmodified, looked up): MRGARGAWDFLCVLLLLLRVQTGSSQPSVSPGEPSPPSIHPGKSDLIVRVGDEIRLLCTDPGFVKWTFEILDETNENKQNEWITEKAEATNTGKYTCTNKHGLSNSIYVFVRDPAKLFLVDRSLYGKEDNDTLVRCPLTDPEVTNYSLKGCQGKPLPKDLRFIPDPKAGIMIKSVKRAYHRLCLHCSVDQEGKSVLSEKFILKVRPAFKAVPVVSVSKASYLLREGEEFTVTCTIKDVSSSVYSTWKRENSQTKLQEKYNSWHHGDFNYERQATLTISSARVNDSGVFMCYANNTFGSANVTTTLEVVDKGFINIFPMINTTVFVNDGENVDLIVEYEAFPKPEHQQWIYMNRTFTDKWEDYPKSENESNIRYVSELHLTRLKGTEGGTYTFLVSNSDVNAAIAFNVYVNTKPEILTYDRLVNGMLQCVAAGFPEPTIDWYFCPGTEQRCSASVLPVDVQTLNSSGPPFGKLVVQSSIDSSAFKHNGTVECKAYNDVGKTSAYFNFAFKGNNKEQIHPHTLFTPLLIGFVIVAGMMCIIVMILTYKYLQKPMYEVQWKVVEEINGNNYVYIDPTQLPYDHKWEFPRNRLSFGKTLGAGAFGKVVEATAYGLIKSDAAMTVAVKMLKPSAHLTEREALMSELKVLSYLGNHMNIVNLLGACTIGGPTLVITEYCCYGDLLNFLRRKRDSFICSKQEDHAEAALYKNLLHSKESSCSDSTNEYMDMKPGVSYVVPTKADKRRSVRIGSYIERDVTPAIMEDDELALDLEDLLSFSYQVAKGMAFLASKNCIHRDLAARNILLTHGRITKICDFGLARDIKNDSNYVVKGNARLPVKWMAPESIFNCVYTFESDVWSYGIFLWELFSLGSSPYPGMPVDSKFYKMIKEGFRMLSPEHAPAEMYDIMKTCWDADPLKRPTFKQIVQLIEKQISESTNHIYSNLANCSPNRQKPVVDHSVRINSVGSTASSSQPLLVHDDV
Chain of UniProt Q96NX5 (whole entry, looked up): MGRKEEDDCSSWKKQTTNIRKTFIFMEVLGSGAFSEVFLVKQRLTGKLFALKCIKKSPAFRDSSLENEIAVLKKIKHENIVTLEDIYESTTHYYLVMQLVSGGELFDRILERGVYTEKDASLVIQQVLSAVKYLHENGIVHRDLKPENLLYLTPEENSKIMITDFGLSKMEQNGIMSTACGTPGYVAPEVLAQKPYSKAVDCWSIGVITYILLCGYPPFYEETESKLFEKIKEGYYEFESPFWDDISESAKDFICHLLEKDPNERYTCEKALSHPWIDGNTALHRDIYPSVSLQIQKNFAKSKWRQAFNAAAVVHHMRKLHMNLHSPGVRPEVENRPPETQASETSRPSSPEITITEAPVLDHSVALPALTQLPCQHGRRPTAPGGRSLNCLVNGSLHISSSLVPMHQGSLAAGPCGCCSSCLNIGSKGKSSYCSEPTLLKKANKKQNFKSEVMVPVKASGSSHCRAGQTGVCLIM

Set 1
Target: Muscle, skeletal receptor tyrosine-protein kinase (MUSK, Homo sapiens, UniProt O15146)
Effect on: enzyme activity
Action: inhibitor
Concentration: 0.5 µM
Reference: control
Target sequence (O15146 1-869): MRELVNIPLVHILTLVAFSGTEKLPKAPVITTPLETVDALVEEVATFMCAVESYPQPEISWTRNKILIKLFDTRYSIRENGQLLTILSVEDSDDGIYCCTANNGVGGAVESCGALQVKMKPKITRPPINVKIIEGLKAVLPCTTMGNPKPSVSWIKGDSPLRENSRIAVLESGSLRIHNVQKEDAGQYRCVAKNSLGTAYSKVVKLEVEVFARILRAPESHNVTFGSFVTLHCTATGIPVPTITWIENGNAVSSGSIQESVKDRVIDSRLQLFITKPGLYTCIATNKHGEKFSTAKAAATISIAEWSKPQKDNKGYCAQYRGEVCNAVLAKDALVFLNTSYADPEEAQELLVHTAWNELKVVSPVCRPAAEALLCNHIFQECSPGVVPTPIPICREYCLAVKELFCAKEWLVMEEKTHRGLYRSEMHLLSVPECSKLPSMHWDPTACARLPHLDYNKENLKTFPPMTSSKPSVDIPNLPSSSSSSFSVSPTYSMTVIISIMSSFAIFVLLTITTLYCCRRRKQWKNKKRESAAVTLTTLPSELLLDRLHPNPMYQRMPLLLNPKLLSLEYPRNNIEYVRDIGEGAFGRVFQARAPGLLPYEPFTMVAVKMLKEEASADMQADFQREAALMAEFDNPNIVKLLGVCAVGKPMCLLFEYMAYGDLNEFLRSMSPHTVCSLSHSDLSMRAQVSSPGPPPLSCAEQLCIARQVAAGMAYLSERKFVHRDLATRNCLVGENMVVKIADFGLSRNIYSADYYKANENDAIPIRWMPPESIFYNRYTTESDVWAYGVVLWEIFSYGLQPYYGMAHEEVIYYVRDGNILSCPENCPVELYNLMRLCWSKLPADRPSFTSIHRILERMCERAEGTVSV
SMILES | remaining activity
NCCNc1ncc(C(N)=O)c(Nc2cccc(C(F)(F)F)c2)n1 | 88.6%
CO[C@H]1C[C@@H]2CC[C@@H](C)[C@@](O)(O2)C(=O)C(=O)N2CCCC[C@H]2C(=O)O[C@H]([C@H](C)C[C@@H]2CC[C@@H](O)[C@H](OC)C2)CC(=O)[C@H](C)/C=C(\C)[C@@H](O)[C@@H](OC)C(=O)[C@H](C)C[C@H](C)/C=C/C=C/C=C/1C | 87.7%
O=C1NC(=O)C(c2cn(CCCn3ccnc3)c3ccccc23)=C1Nc1ccccc1 | 51.6%
OCC(O)CCON=C1C(c2c(O)[nH]c3ccccc23)=Nc2ccccc21 (centres unmarked) | 58%
Cn1sc(=O)n(Cc2ccccc2)c1=O | 103%
COc1ccc(OC)c2c(=S)c3ccccc3[nH]c12 | 87.3%
Cc1ccc(NC(=O)c2ccc(CN3CCN(C)CC3)cc2)cc1Nc1nc(-c2cccnc2)cs1 | 99%
Nc1[nH]nc2nc3ccccc3nc12 | 82.6%
O=c1c2ccccc2[nH]c(=S)n1CCN1CCC(=C(c2ccc(F)cc2)c2ccc(F)cc2)CC1 | 93.6%
CC(C)[C@H](CO)Nc1nc(Nc2cc(N)cc(Cl)c2)c2ncn(C(C)C)c2n1 | 46%
COc1cc2nccc(Oc3ccc(NC(=S)NC(=O)c4ccccc4C)cc3)c2cc1OC | 95.9%
Cc1nc(-c2ccccc2)c(-c2ccncc2)o1 | 95.9%
O=C(CCCc1ccc(-c2ccccc2F)cc1)Nc1ccc(O)cc1 | 93.1%
Oc1ccc(-c2nc(-c3ccncc3)c(-c3ccc(F)cc3)[nH]2)cc1 | 86.8%
Cn1c2ccccc2c2c3c(c4c5ccccc5n(CCC#N)c4c21)CNC3=O | 34.8%
C#Cc1cccc(Nc2ncnc3cc(OCCOC)c(OCCOC)cc23)c1 | 94.6%

Set 2
Cell line: mouse MPNST tumor cells
Technique: high-content nuclear imaging
Item: cell number
Concentration: 10 µM
Time: 12 h
Setting: mean of 2 replicates
Reference: plate mean
Direction: higher = more cells
Structure (SMILES) | nuclei count
O=C(O)CCNC(=O)c1ccc(/N=N/c2ccc(O)c(C(=O)O)c2)cc1 | 0.215 z-score
CN(C)CCCn1cc(C2=C(c3c[nH]c4ccccc34)C(=O)NC2=O)c2ccccc21 | 0.746 z-score
Cc1ccccc1N(C)C(=O)c1ccc([S+]([O-])c2nccs2)c([N+](=O)[O-])c1 (centres unmarked) | -6.52 z-score
C[C@H](CCC(=O)O)[C@H]1CC[C@H]2[C@@H]3[C@H](O)C[C@@H]4C[C@H](O)CC[C@]4(C)[C@H]3CC[C@]12C | 0.668 z-score

Set 3
SMILES: COc1cc(C(=O)N2CCC(N3CCN(C)CC3)CC2)ccc1Nc1ncc2c(n1)N(C)c1ccccc1C(=O)N2C
Effect on: kinase–CDC37 interaction
target | test | test system | setting | pEC50
Ribosomal protein S6 kinase alpha-5 (RPS6KA5, Homo sapiens, UniProt O75582) | – | – | kinome plate 3@B12 | < 5.00
Eukaryotic translation initiation factor 2-alpha kinase 1 (EIF2AK1, Homo sapiens, UniProt Q9BQI3) | – | – | kinome plate 3@F10 | < 5.00
Death-associated protein kinase 1 (DAPK1, Homo sapiens, UniProt P53355) | – | – | kinome plate 3@F05 | < 5.00
Calcium/calmodulin-dependent protein kinase type 1G (CAMK1G, Homo sapiens, UniProt Q96NX5) | – | – | kinome plate 3@B11 | < 5.00
Fibroblast growth factor receptor 1 (FGFR1, Homo sapiens, UniProt P11362) | inhibitor | human cells | kinome plate 1@C02 | < 5.00

Set 4
Structure (SMILES): CN(C)CC#Cc1ccc(OCCCc2sc(N3CCc4cccc(C(=O)Nc5nc6ccccc6s5)c4C3)nc2C(=O)O)c(F)c1
Effect on: cell-free assay
Technique: competition with immobilised ligand
Concentration: 1 µM
target | remaining binding [%]
Mast/stem cell growth factor receptor Kit (KIT, Homo sapiens, UniProt P10721, D816H) | 71
Receptor-type tyrosine-protein kinase FLT3 (FLT3, Homo sapiens, UniProt P36888, K663Q) | 100
Receptor-type tyrosine-protein kinase FLT3 (FLT3, Homo sapiens, UniProt P36888, D835Y) | 83
Wee1-like protein kinase 2 (WEE2, Homo sapiens, UniProt P0C1S8) | 100
Receptor-type tyrosine-protein kinase FLT3 (FLT3, Homo sapiens, UniProt P36888, ITD) | 97
Serine/threonine-protein kinase Nek4 (NEK4, Homo sapiens, UniProt P51957) | 98
Epidermal growth factor receptor (EGFR, Homo sapiens, UniProt P00533, L858R/T790M) | 100

A few entries again (set 1):
SMILES | remaining activity
CC(C)[C@H](CO)Nc1nc(Nc2cc(N)cc(Cl)c2)c2ncn(C(C)C)c2n1 | 46%
NCCNc1ncc(C(N)=O)c(Nc2cccc(C(F)(F)F)c2)n1 | 88.6%
